Measurements from different studies.
Protocols differ between the studies behind these lines. Values joined by “and” are separate records of one study, mostly repeats; a detail may differ. ± marks the error that the study gave.
GUK1: GUK1 (Homo sapiens, UniProt Q16774)
HTR2C: 5-hydroxytryptamine receptor 2C (HTR2C, Homo sapiens, UniProt P28335)
SULT1A1: Sulfotransferase 1A1 (SULT1A1, Homo sapiens, UniProt P50225)
T1: ssDNA, aptamer; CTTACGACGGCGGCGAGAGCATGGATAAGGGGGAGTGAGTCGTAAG

Structure (SMILES) | target | test | system | setting | how to read | quantity | result
O=c1nc(SCc2cc(F)cc(C(F)(F)F)c2)nc(SCc2ccc3sccc3c2)[nH]1 | TOP2A (Homo sapiens, UniProt P11388) | DNA relaxation |  | 62.5 µM, replicate 1 |  | relaxed DNA | 0%
O=C(CN1CCO[C@@H](COc2ccccn2)C1)N1CCc2ccccc21 | HTR2A (Homo sapiens, UniProt P28223) | radioligand binding |  | concentration not given, added: [3H]ketanserin |  | inhibition | 18.8%
Cc1ccc(N2CC(C(N)=O)CC2=O)cc1 (stereo not shown) | Histone acetyltransferase type B catalytic subunit (Homo sapiens, UniProt O14929) | binding, affinity selection mass spectrometry |  |  | reference: other proteins in batch | log fold enrichment | -0.0512
[Cl-].[K+] | GUK1 | enzyme activity, NADH-coupled |  | 60 mM |  | reaction velocity | -0.024 µM/s and 0.0298 µM/s and 0.0236 µM/s
Nc1ncnc2c1ncn2[C@@H]1O[C@H](COP(=O)(O)OP(=O)(O)OP(=O)(O)O)[C@@H](O)[C@H]1O | Hexokinase-3 (HK3, Homo sapiens, UniProt P52790, E254A) | substrate |  | mutant E254A, added: glucose 0.5 mM |  | kcat | 71 ± 2 s⁻¹
c1ccc(C(NCc2cccnc2)(c2ccccc2)c2ccccc2)cc1 | KCNQ1 (Homo sapiens, UniProt P51787) | fractional inhibition kinetics |  | y-intercept of rate vs concentration |  | apparent koff | 14 s⁻¹
Nc1ncnc2c1ncn2[C@@H]1O[C@H](COP(=O)(O)CP(=O)(O)OP(=O)(O)O)[C@@H](O)[C@H]1O | P2X purinoceptor 1 (P2RX1, Homo sapiens, UniProt P51575, F188L) | saturation binding | HEK293 | 79 nM |  | specific binding | 6810 CCPM and 5230 CCPM
O=C1c2ccccc2CCN1CCCCN1CCN(c2ccccn2)CC1 | HTR7 (Homo sapiens, UniProt P34969) | radioligand binding |  | concentration not given, added: [3H]LSD |  | inhibition | 93.3%
CC[C@H](C)[C@H](NC(=O)[C@H](CC(=O)O)NC(=O)[C@H](CCC(=O)O)NC(=O)[C@@H](N)CC(N)=O)C(=O)N[C@@H](CC(=O)O)C(=O)N[C@@H](CCC(N)=O)C(=O)N[C@@H](CCSC)C(=O)N[C@@H](Cc1ccccc1)C(=O)N[C@@H](CO)C(=O)N[C@H](C(=O)N[C@@H](CC(C)C)C(=O)N[C@@H](CC(C)C)C(=O)NCC(=O)N[C@@H](CCC(=O)O)C(=O)N[C@@]1(C)CCCC=CCCC[C@@](C)(C(=O)N[C@@H](CCC(N)=O)C(=O)N[C@@H](CO)C(=O)O)NC(=O)[C@H](CC(C)C)NC(=O)[C@H](CC(C)C)NC(=O)[C@H](CC(=O)O)NC1=O)[C@@H](C)O | Talin-1, with integrin beta3 (Tln1, Mus musculus, UniProt P26039) | inhibitor, fluorescence polarization |  |  |  | β3-talin head domain interaction | inhibited
C[C@@H](O)CNC(C)(C)CC(=O)N[C@@H]1CCc2ccccc2N(Cc2ccc(-c3ccccc3-c3nn[nH]n3)cc2)C1=O | GHSR (Homo sapiens, UniProt Q92847) | intracellular calcium mobilization, agonist | HEK293 cells stably expressing receptor |  |  | Emax | 100%
Nc1ncnc2c1ncn2[C@@H]1O[C@H](COP(=O)(O)OP(=O)(O)OP(=O)(O)O)[C@@H](O)[C@H]1O | T1, ssDNA, aptamer | ITC |  |  |  | Kd | 646 nM
Cc1ncsc1-c1ccc([C@H](C)NC(=O)[C@@H]2C[C@@H](O)CN2C(=O)[C@@H](NC(=O)CCCCCCCCC(=O)N(CCO)CCCOc2ccc3c(Nc4cc(CC(=O)Nc5cccc(F)c5)[nH]n4)ncnc3c2)C(C)(C)C)cc1 | Aurora kinase B (AURKB, Homo sapiens, UniProt Q96GD4) | degrader, Western blot | U-937 | 1 µM, 24 h |  | degradation | > 60%
CC(Oc1ccccc1)C(=O)NCc1ccccn1 (stereo not shown) | RFWD3 (Homo sapiens, UniProt Q6PCD5) | binding, affinity selection mass spectrometry |  |  | reference: other proteins in batch | fold enrichment | 0.748
O=C1c2ccccc2CCCN1CCCCN1CCN(c2ccccn2)CC1 | HTR2C | radioligand binding |  | concentration not given, added: [3H]mesulergine |  | inhibition | 42.6%
NCCCS(=O)(=O)O | SLC6A6 (Homo sapiens, UniProt P31641, Y138A) | binding, microscale thermophoresis |  | 40.3 nM, fitted curve | higher = more binding | fraction bound | 0.000365
CC[N+](CC)(CC)CCOc1cccc(OCC[N+](CC)(CC)CC)c1OCC[N+](CC)(CC)CC | TDP1 (Homo sapiens, UniProt Q9NUW8) | binding, small molecule microarray |  | added: AF647-labelled TDP1 1 µM | direction not given | Z score | 3.65
NCC(=O)O | Sodium- and chloride-dependent neutral and basic amino acid transporter B(0+) (Slc6a14, Mus musculus, UniProt Q9JMA9) | transport current, two-electrode voltage clamp | Xenopus oocytes | 1 to 2 mM, holding potential -40 mV |  | current amplitude | 1450 ± 98.8 nA

Structure (SMILES) | target | test | system | setting | how to read | quantity | result
C=CC(=O)N1CCC(COCC(=O)N2CCN(c3nc(-c4cnc(N)nc4C(F)F)nc(N4CCOC[C@@H]4C)n3)CC2)CC1 | PRKD3 (Homo sapiens, UniProt O94806) | KINOMEscan |  | 1 µM |  | remaining binding | 100%
C[C@]12C[C@H](O)[C@H]3[C@@H](CCC4=CC(=O)CC[C@@]43C)[C@@H]1CC[C@@H]2C(=O)CO | CYP11B2 (Homo sapiens, UniProt P19099) |  | nanodiscs | 25 °C, fast phase |  | koff | 8.6 ± 0.4 s⁻¹
Cc1n[nH]c2ccc(-c3cc(OC[C@@H](N)Cc4ccccc4)cnc3-c3ccoc3)cc12 | Protein kinase C-like 1 (Candida albicans, UniProt P43057) | kinase binding, competitor, MIB/MS competition, measured: PKC1 | Candida albicans cell lysate | 1 µM | reference: DMSO | log2 fold change | 0.00546
CN(C)C(=O)C(CCN1CCC(O)(c2ccc(Cl)cc2)CC1)(c1ccccc1)c1ccccc1 | Calcium-activated potassium channel subunit alpha-1, with LRRC26 γ1 subunit (KCNMA1, Homo sapiens, UniProt Q12791) | ion current, inside-out patch, fit of G-V curve | BKα/γ1 channel | 10 µM, added: nominally 0 Ca2+ |  | V1/2 | -6.24 mV
C[S+](CC[C@H](N)C(=O)[O-])C[C@H]1O[C@@H](n2cnc3c(N)ncnc32)[C@H](O)[C@@H]1O (stereo partly shown) | KMT2C (Homo sapiens, UniProt Q8NEZ4) | substrate, enzyme-coupled methylation |  | added: H3 peptide 100 µM |  | apparent Vmax | 0.9 ± 0.06 µM/min
CCC(=O)NCC[C@@H]1CCc2cc(O)c3c(c21)CCO3 | SULT1A1 | sulfation, substrate |  | 10 µM, pH 7.0, substrate 1 |  | Vmax | 7.86 ± 0.76 nmol/min/mg
CC(=C/C(=O)O)/C=C/C=C(\C)C1C=C2C(C)(C)CCCC2(C)O1 (stereo not shown) | Rhodopsin (RHO, Homo sapiens, UniProt P08100, T17M) | ER retention, immunostaining co-localization, measured: opsin with calnexin | COS-7 transfected T17M | 20.00 µM |  | Pearson correlation coefficient | 0.5
Nc1nc2c(ncn2[C@@H]2O[C@H](COP(=O)(O)O)[C@@H](O)[C@H]2O)c(=O)[nH]1 | GUK1 | enzyme activity, NADH-coupled |  | 15.62 µM |  | reaction rate | 14.1 s⁻¹ and 22.4 s⁻¹ and 19 s⁻¹
Cc1cc(OCC(=O)NC(C)C)cc(C)c1Cl | SLC6A19 (Homo sapiens, UniProt Q695T7) | membrane potential, FLIPR membrane potential | CHO-BC cells | concentration not given, first screen | reference: uninhibited control | normalised transport activity | 0.651 and 0.829 and 0.57 and 0.779 and 0.666
CCN1CCC[C@H]1CNC(=O)c1c(O)c(Cl)cc(Cl)c1OC | G-protein coupled receptor 171 (GPR171, Homo sapiens, UniProt O14626) | β-arrestin recruitment, TANGO luminescence, measured: GPR171 |  | concentration not given | reference: basal luminescence | log2 fold change | 0.638
CCS(=O)(=O)N1CC(CC#N)(n2cc(-c3ncnc4[nH]ccc34)cn2)C1 | ORM1 (Homo sapiens, UniProt P02763) |  |  | added: Ca^2+ |  | change in binding constant | 34.5%
CC1CCCN(C(=O)c2cc3ncccn3n2)C1 (stereo not shown) | STUB1 (Homo sapiens, UniProt Q9UNE7) | binding, affinity selection mass spectrometry |  |  | reference: other proteins in batch | fold enrichment | 1.87
OCc1ccc(-c2nn(Cc3ccccc3)c3ccccc23)o1 | SULT1A1 | substrate, colorimetric |  | 100 µM | reference: benzyl alcohol | relative sulfonation activity | < 2 fold
O=C(O)c1ccc(Nc2ncc3c(n2)-c2ccc(Cl)cc2C(c2c(F)cccc2F)=NC3)cc1 | HIPK1(h) | kinase activity |  | 1 µM |  | remaining activity | 117%
O=[N+]([O-])c1ccc(O[C@@H]2O[C@H](CO)[C@@H](O)[C@H](O)[C@H]2O)cc1 | bglA (Thermotoga maritima, UniProt Q08638) | hydrolysis, substrate |  | pH 6.8, 37 °C |  | Km | 570 ± 80 µM
Nc1ccc2cc3ccc(N)cc3nc2c1 | Chymotrypsinogen A, activated (alpha-chymotrypsin) (Bos taurus, UniProt P00766) | isothermal titration calorimetry |  | concentration not given, 25 °C, added: 0.5 M TMAO |  | entropic contribution to binding | -119 ± 3.7 kJ/mol
CN(CCCCNC(=O)c1cc2ccccc2[nH]1)[C@@H]1Cc2cccc3[nH]c(=O)n(c23)C1 | HTR2C | binding |  | added: [3H]5-HT |  | Hill slope | -0.75 ± 0.04
